{"data": "Experimental data gathered from unrelated publications", "note": "Lines come from different studies, so protocols differ. ± marks the error that the study gave."}
{"Compound": "Cc1ccc(-n2cccc2/C=C2\\C(=N)N3N=C(c4ccco4)SC3=NC2=O)cc1", "system": "PBS", "setting": "24 h, pH 7.4, 21 °C, 2.0% DMSO", "kinetic solubility": "8.7 µM"}
{"Compound": "COc1cc2[nH]c(C)c(-c3cc4ccccc4o3)c(=O)c2cc1Cl", "setting": "pH 7.4", "kinetic solubility": "< 2 µM"}
{"Compound": "NS(=O)(=O)c1nnc(NC(=O)C2CCCC3(CCCCC3)C2)s1 (stereo not drawn)", "system": "PBS", "setting": "pH 7.4", "kinetic solubility": "88.5 µM"}
{"Compound": "COc1cc2[nH]c(C)c(-c3ccc(C(C)=O)cc3)c(=O)c2cc1Cl", "setting": "pH 7.4", "kinetic solubility": "< 2 µM"}
{"Compound": "c1ccc(C2CCN(c3nc(-c4ccccn4)nc4ccccc34)C2)cc1 (stereo not drawn)", "system": "Japanese Pharmacopoeia disintegration test solution 2", "setting": "pH 6.8", "kinetic solubility": "1 µg/mL"}
{"Compound": "COc1cc2[nH]c(C)c(-c3ccccc3)c(=O)c2cc1Cl", "setting": "pH 7.4", "kinetic solubility": "2 to 6 µM"}
{"Compound": "CS(=O)(=O)c1cnc(NS(=O)(=O)c2ccc(N)cc2)nc1.Cl", "system": "PBS", "setting": "2 h, pH 7.4, 25 °C", "kinetic solubility": "387 µM"}
{"Compound": "COc1cccc2c(Nc3ccc4[nH]c(C(=O)N/N=C/c5ccc(SC)cc5)cc4c3)cc(C)nc12", "system": "aqueous buffer", "setting": "90 min, pH 7.4, 25 °C, 0.1% DMSO", "kinetic solubility": "6 ± 1.4 µM"}
{"Compound": "C=C(NC(=O)c1csc(-c2nc3c(cc2O)-c2nc(cs2)C(=O)N[C@@H]([C@@H](C)O)C(=O)N/C(=C\\C)c2nc(cs2)C(=O)N[C@H]2C[C@H](O)C(=O)OCc4cccc5[nH]c(c(C)c45)C(=O)SC[C@H](NC(=O)c4csc2n4)c2nc-3cs2)n1)C(N)=O", "assay": "HPLC", "system": "citrate buffer", "setting": "pH 6.0, 5% DMSO", "kinetic solubility": "0.0283 µg/mL"}
{"Compound": "FC(F)(F)c1ccccc1-c1nc(N2CCC(c3ccccn3)C2)c2ccccc2n1 (stereo not drawn)", "system": "Japanese Pharmacopoeia disintegration test solution 2", "setting": "pH 6.8", "kinetic solubility": "2 µg/mL"}
{"Compound": "O=C(Nc1ccc(Cl)c(Cl)c1)c1cc([N+](=O)[O-])c(F)cc1Cl", "system": "phosphate buffer", "setting": "pH 7.4", "kinetic solubility": "< 1.6 µM"}
{"Compound": "CC/C=C\\C/C=C\\C/C=C\\C/C=C\\C/C=C\\C/C=C\\CCC(=O)O.Cc1cc(/C=C/C#N)cc(C)c1Nc1ccnc(Nc2ccc(C#N)cc2)n1", "system": "Capmul MCM C8", "kinetic solubility": "~50000 µg/mL"}
{"Compound": "COc1cc2[nH]c(C)c(-c3ccc4c(c3)OCCO4)c(=O)c2cc1Cl", "setting": "pH 7.4", "kinetic solubility": "< 2 µM"}
{"Compound": "CCn1cc2c(N3CCC(c4ccccn4)C3)nc(-c3ccccn3)nc2n1 (stereo not drawn)", "system": "Japanese Pharmacopoeia disintegration test solution 2", "setting": "pH 6.8", "kinetic solubility": "84 µg/mL"}
{"Compound": "CCN(CC)CCNC(=O)c1cc(S(C)(=O)=O)ccc1OC", "system": "PBS", "setting": "2 h, pH 7.4, 25 °C, 2% DMSO", "kinetic solubility": "394 µM"}
{"Compound": "c1ccc(-c2nc(N3CCCC3)c3ccccc3n2)nc1", "system": "Japanese Pharmacopoeia disintegration test solution 2", "setting": "pH 6.8", "kinetic solubility": "79 µg/mL"}
{"Compound": "CCCCCCCC(=O)c1c(O)cc(O)cc1CC(=O)OCC", "system": "aqueous buffer", "setting": "90 min, pH 7.4, 25 °C, 0.1% DMSO", "kinetic solubility": "≥ 100 µM"}
{"Compound": "Clc1ccc(COc2cncc(-c3cnn(C4CCNCC4)c3)c2)c(Cl)c1", "system": "phosphate buffer", "setting": "pH 7.4, first insoluble concentration", "kinetic solubility": "60 µM"}
{"Compound": "O=C(Nc1cncc(-c2nc3ccccc3s2)c1)c1cc([N+](=O)[O-])c(F)cc1Cl", "system": "phosphate buffer", "setting": "pH 7.4", "kinetic solubility": "< 1.6 µM"}
{"Compound": "CS(=O)(=O)c1ccc(C(=O)N2CCCCC2)cc1", "system": "PBS", "setting": "2 h, pH 7.4, 25 °C, 2% DMSO", "kinetic solubility": "308 µM"}
{"Compound": "Cc1[nH]c(C)c(S(=O)(=O)Nc2ccc(C(F)(F)F)c(Cl)c2)c1C(=O)N1CCC(F)(F)C1", "kinetic solubility": "89 µM"}
{"Compound": "c1ccc(-c2nc(Nc3ccn4nccc4c3)c3ccccc3n2)nc1", "system": "Japanese Pharmacopoeia disintegration test solution 2", "setting": "pH 6.8", "kinetic solubility": "2 µg/mL"}
{"Compound": "Cc1ccc(C(=O)O)cc1-c1ccc(/C=C2\\SC(=O)N(CC(=O)Nc3ccccc3)C2=O)o1", "system": "PBS", "setting": "24 h, pH 7.4, 21 °C, 2.0% DMSO", "kinetic solubility": "7.2 µM"}
{"Compound": "Cc1onc(-c2ccccc2)c1-c1ccc(S(N)(=O)=O)cc1", "system": "aqueous buffer", "setting": "90 min, pH 7.4, 25 °C, 0.1% DMSO", "kinetic solubility": "58.3 ± 1.5 µM"}
{"Compound": "Cc1ccc(-c2nc3ccccc3s2)cc1NC(=O)c1cc([N+](=O)[O-])c(N2CCNCC2)cc1Cl", "system": "phosphate buffer", "setting": "pH 7.4", "kinetic solubility": "< 1.6 µM"}
{"Compound": "CCn1ncc2c(N3CCC(c4ccccn4)C3)nc(-c3ccccn3)nc21 (stereo not drawn)", "system": "Japanese Pharmacopoeia disintegration test solution 2", "setting": "pH 6.8", "kinetic solubility": "76 µg/mL"}
{"Compound": "CCOC(=O)[C@](CC)(CCCS(=O)(=O)CCOCCOCCNC(=O)OC(C)(C)C)NC(=O)c1ccc(C2CC2)c(Cc2ccc(F)cc2)n1", "system": "aqueous buffer with DMSO", "kinetic solubility": "< 0.4 µg/mL"}
{"Compound": "CCn1cc(Cl)c2c(Cc3ccc(C(F)(F)F)nc3)n(C)nc2c1=O", "assay": "nephelometry", "system": "phosphate buffer", "setting": "30 min, pH 6.5, 1% DMSO", "kinetic solubility": "67 to 140 µM"}
{"Compound": "COc1c(-c2ccc3cc(NS(C)(=O)=O)ccc3c2)cc(-n2ccc(=O)[nH]c2=O)cc1C(C)(C)C", "assay": "chemiluminescent nitrogen detection", "system": "water", "setting": "pH 7.2, 23 °C", "kinetic solubility": "-5.1 log S"}
{"Compound": "NS(=O)(=O)c1nnc(NC(=O)CCC2CC3CCC2C3)s1 (stereo not drawn)", "system": "PBS", "setting": "pH 7.4", "kinetic solubility": "60.5 µM"}
{"Compound": "O=C(Nc1cccc(-c2nccs2)c1)c1cc([N+](=O)[O-])c(F)cc1F", "system": "phosphate buffer", "setting": "pH 7.4", "kinetic solubility": "2.1 ± 0.1 µM"}
{"Compound": "CCN1CCN(c2cc(N3CCN(CC)CC3)nc(NCCNc3ccnc4cc(Cl)ccc34)n2)CC1", "system": "aqueous buffer", "setting": "90 min, pH 7.4, 25 °C, 0.1% DMSO", "kinetic solubility": "94.4 ± 1.4 µM"}
{"Compound": "Cn1cc(-c2nc(N3CCC(c4ccccn4)C3)c3ccccc3n2)cn1 (stereo not drawn)", "system": "Japanese Pharmacopoeia disintegration test solution 2", "setting": "pH 6.8", "kinetic solubility": "79 µg/mL"}
{"Compound": "Clc1ccc2nc(-c3ccccn3)c(Nc3ccc4c(c3)OCCO4)n2c1", "assay": "shake flask HPLC-UV", "system": "sodium phosphate buffer", "setting": "24 h, pH 7.4, 2% DMSO", "kinetic solubility": "0.38 µg/mL"}
{"Compound": "CCCCCOc1ccc(C2C(C(=O)c3ccc(C)o3)=C(O)C(=O)N2c2cc(C)on2)cc1 (stereo not drawn)", "system": "PBS", "setting": "24 h, pH 7.4, 21 °C, 2.0% DMSO", "kinetic solubility": "77.5 µM"}
{"Compound": "Cc1ccc(-c2nc3ccccc3s2)cc1NC(=O)c1cc([N+](=O)[O-])c(NC2CCN(C)CC2)cc1Cl", "system": "phosphate buffer", "setting": "pH 7.4", "kinetic solubility": "< 1.6 µM"}
{"Compound": "O=C1/C(=C/C=C/c2ccco2)SC(=S)N1c1ccc(O)cc1", "system": "PBS", "setting": "24 h, pH 7.4, 21 °C, 2.0% DMSO", "kinetic solubility": "112 µM"}
{"Compound": "COc1ccc(C(=O)N2CCCCC2)cc1", "system": "PBS", "setting": "2 h, pH 7.4, 25 °C, 2% DMSO", "kinetic solubility": "343 µM"}
{"Compound": "CN1CCN(c2cc(Cl)c(C(=O)Nc3cncc(-c4nc5ccccc5s4)c3)cc2[N+](=O)[O-])CC1", "system": "phosphate buffer", "setting": "pH 7.4", "kinetic solubility": "< 1.6 µM"}
{"Compound": "Cc1ccc2nc(-c3ccccn3)c(Nc3ccc4c(c3)OCCO4)n2c1", "assay": "shake flask HPLC-UV", "system": "sodium phosphate buffer", "setting": "24 h, pH 2.0, 2% DMSO", "kinetic solubility": "71.7 µg/mL"}
{"Compound": "O=C1NN(c2ccccc2)C(=O)/C1=C/c1ccc(Sc2cccc3ccccc23)o1", "system": "PBS", "setting": "24 h, pH 7.4, 21 °C, 2.0% DMSO", "kinetic solubility": "< 3 µM"}
{"Compound": "CCc1c(C)[nH]c2cc(OC)c(Cl)cc2c1=O", "setting": "pH 7.4", "kinetic solubility": "6 to 12 µM"}
{"Compound": "CN1C(C(=O)Nc2ccccn2)=C(O)c2sc(Cl)cc2S1(=O)=O", "system": "aqueous buffer", "setting": "90 min, pH 7.4, 25 °C, 0.1% DMSO", "kinetic solubility": "≥ 100 µM"}
{"Compound": "CN1CCN(c2nc(-c3ccccn3)nc3ccccc23)CC1", "system": "Japanese Pharmacopoeia disintegration test solution 2", "setting": "pH 6.8", "kinetic solubility": "82 µg/mL"}
{"Compound": "COc1cc2[nH]c(C)c(-c3ccccc3C)c(=O)c2cc1Cl", "setting": "pH 7.4", "kinetic solubility": "6 to 12 µM"}
{"Compound": "Cc1ccc(-c2nc3ccccc3s2)cc1NC(=O)c1cc([N+](=O)[O-])c(NCCNC(=O)OC(C)(C)C)cc1Cl", "system": "phosphate buffer", "setting": "pH 7.4", "kinetic solubility": "< 1.56 µM"}
{"Compound": "COc1cc2[nH]c(C)c(-c3ccc(C(C)C)cc3)c(=O)c2cc1Cl", "setting": "pH 7.4", "kinetic solubility": "< 2 µM"}
{"Compound": "O=C(O)CCc1nc(-c2ccccc2)c(-c2ccccc2)o1", "system": "aqueous buffer", "setting": "90 min, pH 7.4, 25 °C, 0.1% DMSO", "kinetic solubility": "≥ 100 µM"}
{"Compound": "COc1cc2[nH]c(C)c(-c3ccc(C(C)(C)C)cc3)c(=O)c2cc1Cl", "setting": "pH 7.4", "kinetic solubility": "< 2 µM"}
{"Compound": "COc1ccn2c(Nc3ccc(F)cn3)c(-c3ccccn3)nc2c1", "assay": "shake flask HPLC-UV", "system": "sodium phosphate buffer", "setting": "24 h, pH 7.4, 2% DMSO", "kinetic solubility": "76.3 µg/mL"}
{"Compound": "O=C(Nc1cnc2ccccc2c1)c1cc2[nH]ccc2cc1Cl", "system": "aqueous buffer", "setting": "90 min, pH 7.4, 25 °C, 0.1% DMSO", "kinetic solubility": "10.1 ± 1.9 µM"}
{"note": "Excerpt of the above:"}
{"Compound": "O=C(Nc1ccc(Cl)c(Cl)c1)c1cc([N+](=O)[O-])c(F)cc1Cl", "system": "phosphate buffer", "setting": "pH 7.4", "kinetic solubility": "< 1.6 µM"}
{"Compound": "CC/C=C\\C/C=C\\C/C=C\\C/C=C\\C/C=C\\C/C=C\\CCC(=O)O.Cc1cc(/C=C/C#N)cc(C)c1Nc1ccnc(Nc2ccc(C#N)cc2)n1", "system": "Capmul MCM C8", "kinetic solubility": "~50000 µg/mL"}
{"Compound": "COc1cc2[nH]c(C)c(-c3ccc4c(c3)OCCO4)c(=O)c2cc1Cl", "setting": "pH 7.4", "kinetic solubility": "< 2 µM"}
{"Compound": "CCn1cc2c(N3CCC(c4ccccn4)C3)nc(-c3ccccn3)nc2n1 (stereo not drawn)", "system": "Japanese Pharmacopoeia disintegration test solution 2", "setting": "pH 6.8", "kinetic solubility": "84 µg/mL"}
{"Compound": "CCN(CC)CCNC(=O)c1cc(S(C)(=O)=O)ccc1OC", "system": "PBS", "setting": "2 h, pH 7.4, 25 °C, 2% DMSO", "kinetic solubility": "394 µM"}
{"Compound": "c1ccc(-c2nc(N3CCCC3)c3ccccc3n2)nc1", "system": "Japanese Pharmacopoeia disintegration test solution 2", "setting": "pH 6.8", "kinetic solubility": "79 µg/mL"}
{"Compound": "CCCCCCCC(=O)c1c(O)cc(O)cc1CC(=O)OCC", "system": "aqueous buffer", "setting": "90 min, pH 7.4, 25 °C, 0.1% DMSO", "kinetic solubility": "≥ 100 µM"}
